Measured values collected from several papers.
Each numbered part is a random draw from the data of one study; scales do not carry over between parts.

Study 1
Target: Ras GTPase-activating protein-binding protein 1, C-terminal RGG region (G3BP1, Homo sapiens, UniProt Q13283)
Chain of UniProt Q13283 (whole entry, looked up): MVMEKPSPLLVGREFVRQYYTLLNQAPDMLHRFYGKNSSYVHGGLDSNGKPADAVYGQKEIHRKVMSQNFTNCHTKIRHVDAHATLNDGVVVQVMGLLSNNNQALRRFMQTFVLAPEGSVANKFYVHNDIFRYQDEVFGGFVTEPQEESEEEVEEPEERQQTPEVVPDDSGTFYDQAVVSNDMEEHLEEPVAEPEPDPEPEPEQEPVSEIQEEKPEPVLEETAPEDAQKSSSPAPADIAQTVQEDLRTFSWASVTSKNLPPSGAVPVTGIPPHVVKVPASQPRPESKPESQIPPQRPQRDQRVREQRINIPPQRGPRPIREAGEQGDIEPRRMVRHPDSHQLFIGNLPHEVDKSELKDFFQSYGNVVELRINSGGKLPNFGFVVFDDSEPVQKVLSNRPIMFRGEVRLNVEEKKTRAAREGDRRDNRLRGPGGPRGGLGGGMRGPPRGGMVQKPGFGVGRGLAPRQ
Method: RNA Bind-n-Seq
Form: RNA
Sample: in vitro
Concentration: 1 µM
Setting: whole 134-nt RNA, ends assumed
With: 150 mM KCl
Relative to: input library
Reading: higher = stronger binding
Shared flanks, not repeated: GGGAGUUCUACAGUCCGACGAUC … UGGAAUUCUCGGGUGUCAAGG
Strand	log2 enrichment
UUGGGUCCAGACUGCGCCACAGCCUCUCGGGAGACGUGGGCCCUCGGAACCUUUUUAGUGCCGGACUCCGGGCCGCAGGCAGUCCCGCGG	-2.33
UCAAGUCCUGUGCUACACAUCGUAUGUACCGAAUCGGGAGGGUUUGGGUUUGGGAAAGUAUUAUGUUACGCCGUUCGGAUCUGCACUUCC	1.99
AAGUCCUGUGCUACACAUCGUAUGUACCGAAUCGGGGCCCCGGCCCCGGGCCCCGGGAAAGUAUUAUGUUACGCCGUUCGGAUCUGCACU	-2.07
CCUCAAGUCCUGUGCUACACAUCGUAUGUACCGAAUCGGCGGGGCGGGCGGGAAAGUAUUAUGUUACGCCGUUCGGAUCUGCACUUCCAG	0.96
CCUCAAGUCCUGUGCUACACAUCGUAUGUACCGAAUCGGGAGGGGAGGGGAGGAAAGUAUUAUGUUACGCCGUUCGGAUCUGCACUUCCA	-0.0055
CCUGUGCUACACAUCGUAUGUACCGAAUCGGGGUUUUUUGGGGUUUUUUGGGGUUUUUUGGAAAGUAUUAUGUUACGCCGUUCGGAUCUG	-0.936
UCCUGUGCUACACAUCGUAUGUACCGAAUCGGGGUUUUUUGGGUUUUUUGGGUUUUUUGGAAAGUAUUAUGUUACGCCGUUCGGAUCUGC	-0.448
GCAGGAAGUAAAAACAAAUGGAAAUGCUUCGGAUAGUGGCAGGGGUGGGGGUUGCUAAGGAAAGGGUGGGAUGGGAGUGGGAAAAGAGUU	2.06

Study 2
Target: RNA binding protein fox-1 homolog 2, RRM domain, GST-SBP tag (RBFOX2, Homo sapiens, UniProt O43251-10, residues 100-194)
Method: RNA Bind-n-Seq
Form: RNA
Sample: in vitro
Concentration: 365 nM
Setting: natural RNA segment, single round, ends assumed
Relative to: no-protein control
Reading: higher = stronger binding
Shared flanks, not repeated: GGGAGUUCUACAGUCCGACGAUC … UGGAAUUCUCGGGUGCCAA
Target sequence (chain): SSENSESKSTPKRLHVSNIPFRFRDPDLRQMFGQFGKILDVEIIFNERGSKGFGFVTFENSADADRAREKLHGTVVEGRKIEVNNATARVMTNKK
Strand	RBNS enrichment (R)
UCCACUUAGGCCACACAGUGAUGAGGAAACCACAGAUGGAGCUUCUUGCCGAUAAUACUGACUCUAGCCCAUGAUUGCCUUGCCCAAGCCAAAGAGGAAGGUUAGGUUGG	0.498
UCCAUUUUGAAAGUGUCCCCGUGGUUGCACACUUCAGAGGACAGGGACUCUGUGUGUCUAAGAAGGCUGGGAUGAGGGCUCUGUUACAGGGCAGACUGUUCUCUCAUAGU	0.785
GCUCUAUAUUUGCAUGGUGCUGCGUGGCGGAGGACCCCUCUGAAUCCUGAAACCCCUCUUGCCUCUCUUCCACGGAAGAGGGCCUGGGCCCCGUGGAGCCUCAGUGCCCG	7.93
AGUCUUUAAACUUUCUCUUAAUUCUCUUAAAAUGAAAUAGGUAUAUCCAAUAGGUGAUGAAAUACAUUUUUUACAAACAUAGAUGCUUUUUAUUUGUAUGUUGAAUGUAC	0.495
GCUUAAAACCAGCCCAGGCAACAUGGCAAAACCCCGUCUCUACAAAAAAAUACAAAAACUAGCUGGGUGUGGUGGCGCAUGCCUGUAGUCCCAGCUGAGGCACGAUAAUU	2.59
AAACACCUUUUUCUAAACACUUUCUUAUAAAAUGCAUUUGGAAACUAGACCUUUGCUACCACUGUCUCUGGGUUUUUGUAUCAGUCCCAACUUCUCAGGCUGUCUUGCCC	0.288
UUGGAGGCCGCUGGCCUGUGCUCUGGUGCAGAUGCUCUUACCCAGCUUCACUCAGGACCACCUUGGGGUGUAACAGAGGGUGUCAUCCGGCCCCUGGCCCUGGGGAACAU	0.27
CUGACCUUGGUAGGACUAAAGUAUUGGGCAGAGCAGCAGCAGUCCCAGGUUUUGUUUGACCUGUGUAGGCUGCAUUUAAAUCUUUAAAACUGCUUUGGUGUCGUUUUUUU	0.376

Study 3
Target: Interferon regulatory factor 5, full length, phosphomimetic (IRF5, Homo sapiens, UniProt Q13568-2, residues 1-514, S451D/S453D/S456D/S462D)
Method: protein-binding microarray
Form: double-stranded DNA, one strand shown
Sample: in vitro
Concentration: 940 nM top
Setting: 60-bp whole probe
With: salmon DNA 0.4 mg/ml
Relative to: random background probes
Reading: higher = stronger binding
Shared flanks, not repeated: GCCTAGCAC … GTCTTGATTCGCTTGACGCTGCTG
Strand	fitted relative affinity
TCAATGCTGGCTTTTATACTGTGCTAG	-0.169 z-score
TTAGATTTCAGTTCCGATTCGTGCTAG	1.74 z-score
GACGGTCTCCTACTGCAGACGTGCTAG	0.0612 z-score
GACGAACTAGGGACTGGAGACGTGCTA	-0.725 z-score
TCATGTCTGGGCATTTTTACTGTGCTA	0.0771 z-score
GACGATATCAGTTTCGATACGTGCTAG	7.95 z-score
ACTAGTTTTCATTTTCTGAAGTGCTAG	1.94 z-score
TCATTTTAAGTTCTCTGACTGTGCTAG	0.343 z-score

Study 4
Cell line: HEK-293T/ACE2
Concentration: 10 µM
Time: 16 h
Relative to: vehicle
Structure (SMILES)	viability
O=C(O)c1ccc(-n2nc(-c3ccccc3O)nc2-c2ccccc2O)cc1	91%
CCC(C)(C)C(=O)O[C@H]1C[C@@H](C)C=C2C=C[C@H](C)[C@H](CC[C@@H]3C[C@@H](O)CC(=O)O3)[C@H]21	106%
COCCCOc1cc(C[C@@H](C[C@H](N)[C@@H](O)C[C@H](C(=O)NCC(C)(C)C(N)=O)C(C)C)C(C)C)ccc1OC	102%

Study 5
Target: Replicase polyprotein 1ab, polymerase (rep, Severe acute respiratory syndrome coronavirus 2, UniProt P0DTD1)
Observed: enzyme activity
Action: inhibitor
Concentration: 20 µM
Structure (SMILES)	inhibition [%]
Fc1cc(-c2cccc3ncc(-c4cnn(C5CCNCC5)c4)nc23)cc(F)c1CN1CCOCC1	12.1
C/C(=C\C(=O)Nc1ccccc1C(=O)O)c1ccc2ccccc2c1	36
CN(C)c1ccc(/C=C2\CCCN=C2c2cccnc2)cc1	11.2
C[C@@H](c1nc(-c2ccc(C#N)cc2)cs1)[C@](O)(Cn1cncn1)c1ccc(F)cc1F	-5.23
C[C@H]1[C@@H](O)O[C@@H]2O[C@@]3(C)CC[C@H]4[C@H](C)CC[C@@H]1[C@@]24OO3	1.55
NS(=O)(=O)Cc1noc2ccccc12	0.99
CC[C@H](c1ccc(O)cc1)[C@@H](CC)c1ccc(O)cc1	-0.93
Oc1c(Cl)cc(Cl)c(Cl)c1Cc1c(O)c(Cl)cc(Cl)c1Cl	103
C[C@]1(Cn2ccnn2)[C@H](C(=O)O)N2C(=O)C[C@H]2S1(=O)=O	-5.25
CN(C)C(=N)NC(=N)N	-5.44
CCNC(C)CN1CCc2c(c(=O)oc3ccccc23)C1 (centres unmarked)	-0.68
CCc1ccccc1OC[C@@H](O)CN[C@H]1CCCc2ccccc21	0.22
COC(=O)c1ccccc1O	2.05
CCCN1CCN(c2ccc(C(=O)NC3(C(=O)NCC#N)CCCCC3)cc2)CC1	2.09
O=c1[nH]c2ccccc2n1C1CCN(CCCC(c2ccc(F)cc2)c2ccc(F)cc2)CC1	13.4
NC1(Cc2ccc(Cl)cc2)CCN(c2ncnc3[nH]ccc23)CC1	3.06
CCOC(=O)Nc1ccc2c(c1)N(C(=O)CN(CC)CC)c1ccccc1CC2	1.11
Nc1ncnc2c1c(COc1cccc(Cl)c1)nn2C1CCOCC1	0.1
CCOc1ccc(/N=C(\C)Nc2ccc(OCC)cc2)cc1	0.36
O=C1NC(=O)/C(=C/c2cccc(C(F)(F)F)c2)S1	-1.19
CC1(C)CC(=O)c2c(C(F)(F)F)nn(-c3ccc(C(N)=O)c(N[C@H]4CC[C@H](OC(=O)CN)CC4)c3)c2C1	8.75
O=C(NCc1ccc(F)cc1)N1CCN2C(=O)OC(c3ccccc3)(c3ccccc3)C2C1 (centres unmarked)	-4.76
Cc1cc(C)cc(OCC2CNC(=O)O2)c1 (centres unmarked)	-3.77
CC[C@@]1(O)C(=O)OCc2c1cc1n(c2=O)Cc2c-1nc1cc(F)c(C)c3c1c2[C@@H](N)CC3	9.65
Cc1ccc2c(Cl)cc(Cl)c(O)c2n1	-1.58

Study 6
Target: Replicase polyprotein 1ab, main protease (rep, Severe acute respiratory syndrome coronavirus 2, UniProt P0DTD1)
Observed: enzyme activity
Action: inhibitor
Concentration: 20 µM
Setting: hit confirmation, with DTT
SMILES	inhibition [%]
O=C(O)CCCCCCCCCCCCCCc1ccc(I)cc1	4
CC(Cc1ccc(O)c(O)c1)C(C)Cc1ccc(O)c(O)c1 (centres unmarked)	1.3
Oc1cccc(-c2c3nc(c(-c4cccc(O)c4)c4ccc([nH]4)c(-c4cccc(O)c4)c4nc(c(-c5cccc(O)c5)c5ccc2[nH]5)CC4)C=C3)c1	-16.6
O=C(O)c1ccc(N2C(=O)/C(=C\c3ccc(-c4ccc([N+](=O)[O-])cc4)o3)C=C2c2ccccc2)cc1	21.6

Excerpt of the above (study 3):
Strand	fitted relative affinity
TCAATGCTGGCTTTTATACTGTGCTAG	-0.169 z-score
TTAGATTTCAGTTCCGATTCGTGCTAG	1.74 z-score
GACGGTCTCCTACTGCAGACGTGCTAG	0.0612 z-score
GACGAACTAGGGACTGGAGACGTGCTA	-0.725 z-score
TCATGTCTGGGCATTTTTACTGTGCTA	0.0771 z-score
GACGATATCAGTTTCGATACGTGCTAG	7.95 z-score
ACTAGTTTTCATTTTCTGAAGTGCTAG	1.94 z-score
